Published values pooled from the literature.
Each line is one published result; not all experiments were run side by side.
Matrix: plasma
Route: oral

SMILES | system | setting | Tmax [h]
CS(=O)(=O)n1cc2c(n1)CN([C@H]1CO[C@H](c3cc(F)ccc3F)[C@@H](N)C1)C2 | male human | 50 mg, multiple doses, healthy volunteers | 4
Nc1ncc(-c2cnn(CCO)c2)c2scc(-c3ccc(NC(=O)Nc4cccc(F)c4)cc3)c12 | human | 440 mg, patients | 3.3
C#C[C@]1(CO)O[C@@H](n2cnc3c(N)nc(F)nc32)C[C@@H]1O | human | 400 mg, single dose, fasted | 0.5
CC(=O)N[C@H]1CC[C@H](NC(=O)CN2CCN(c3nncc(-c4ccc(C)cc4)n3)CC2)CC1 | human | 20 mg, single dose, fasted, healthy volunteers | 1.5
C[C@H](N)C(=O)N1C[C@H](CCCB(O)O)[C@](N)(C(=O)O)C1 | human | 50 mg twice daily, multiple doses, patients | 2
CNc1nc(Nc2ccc(-n3cnc(C)n3)c(OC)c2)nc2c1CC[C@H]2c1ccc(F)cc1 | human | 10 mg, single dose, healthy volunteers | 3
COc1cccc(-c2ccc(NC(=O)C3=C(C(=O)O)CCC3)c(F)c2)c1 | male human | 40 mg, single dose, fasted, healthy volunteers | 3.4
CCCOc1ccc([C@H]2CNC(=O)N2c2ccc3[nH]cnc3c2)cc1 | human | 1200 mg, single dose, fed | 1.25
C[C@@H]1CCC[C@H](n2cnc(-c3cc(Cl)ccc3-n3cc(Cl)nn3)cc2=O)c2cc(ccn2)-c2c(cnn2C(F)F)NC1=O | human | 300 mg, single dose, fasted, healthy volunteers | 3
O=C(c1nc2n(n1)[C@H](c1ccccc1)C[C@@H]2F)C1CC1 | human | 225 mg, single dose, fasted, healthy volunteers | 3.5

Repeated from above:
SMILES | system | setting | Tmax [h]
O=C(c1nc2n(n1)[C@H](c1ccccc1)C[C@@H]2F)C1CC1 | human | 225 mg, single dose, fasted, healthy volunteers | 3.5
